Experimental data of several laboratories.
Each line is one published result; not all experiments were run side by side. ± gives the spread as reported.

| Compound | test | system | conditions | scale | quantity | value |
| --- | --- | --- | --- | --- | --- | --- |
| C[C@](O)(Cn1ccc2cc(F)ccc21)C(=O)Nc1ccc(C#N)c(C(F)(F)F)c1 | mass spectrometry | mouse, tumour | dose not given |  | tumour concentration | 562 nM |
| O=c1[nH]c(Cc2ccccn2)nc2c1cnn2C1CCOCC1 |  | healthy men, extensive metabolizers, plasma | oral, 10 mg single dose, tablet, geometric mean |  | half-life | 1.04 h |
| CC(=O)N[C@H](CCCCNC(=O)C(C)F)C(=O)N[C@@H](CS)C(=O)N[C@@H](CS)C(=O)N[C@@H](CCC(=O)O)C(=O)N[C@@H](Cc1c[nH]cn1)C(=O)N[C@H](Cc1ccccc1)C(=O)N[C@@H](CCCNC(=N)N)C(=O)N[C@@H](Cc1c[nH]c2ccccc12)C(=O)N[C@@H](CS)C(=O)N[C@@H](CCCNC(=N)N)C(=O)N1CCC[C@H]1C(=O)N[C@H](C(N)=O)C(C)C (some centres unmarked) [fluorine-18 labelled] |  | C57BL/6 mice, male, B16-F10 tumour, brain | intravenous, 4 h |  | tissue uptake | 0.04 ± 0.01 %ID/g |
| CC[C@H](C)[C@H](NC(=O)[C@@H](N)CCCNC(=N)N)C(=O)N[C@H](C(=O)N1CCC[C@H]1C(=O)N[C@@H](C)C(N)=O)C(C)C |  | human, plasma | intravenous, 8 mg/kg, single dose, healthy volunteers |  | Cmax | 31000 ng/mL |
| c1cc([C@H]2CC[C@]3(CC2)OO[C@]2(O3)C3CC4CC(C3)CC2C4)ccc1OCCN1CCOCC1 |  | human, plasma | oral, 800 mg, single dose, fed |  | AUC(0-inf) | 23900 ng·h/mL |
| CC(C)C[C@H](NC(=O)[C@H](CC(=O)O)NC(=O)CNC(=O)[C@H](CCCNC(=N)N)NC(=O)[C@H](CC(C)C)NC(=O)[C@H](CC(N)=O)NC(=O)[C@@H]1CCCN1C(=O)[C@@H](NC(=O)[C@H](C)NC(=O)[C@H](CC(N)=O)NC(=O)CCOCCOCCOCCOCCOCCOCCOCCOCCOCCOCCOCCOCCOCCOCCOCCOCCOCCOCCOCCOCCOCCOCCOCCOCCOCCOCCOCCOCCNC(=O)CN1CCN(CC(=O)O)CCN(CC(=O)O)CC1)C(C)C)C(=O)N[C@@H](CCC(N)=O)C(=O)N[C@H](C(=O)N[C@@H](CC(C)C)C(=O)N[C@@H](C)C(=O)N[C@@H](CCC(N)=O)C(=O)N[C@@H](CCCNC(=N)N)C(=O)N[C@H](C(=O)N[C@@H](C)C(=O)N[C@@H](CCCNC(=N)N)C(=O)N[C@H](C(=O)NCCOCCOCCOCCOCCOCCOCCOCCOCCOCCOCCOCCOCCOCCOCCOCCOCCOCCOCCOCCOCCOCCOCCOCCOCCOCCOCCOCCOCCC(N)=O)[C@@H](C)O)C(C)C)C(C)C [fluorine-18 labelled] | biodistribution, radioactivity | female athymic nude mice, DX3puroβ6/DX3puro xenografts, kidney | intravenous, 0.175 nmol, 4 h |  | tissue uptake | 41 ± 10 %ID/g |
| CCCCCOc1ccc(-c2cc(-c3ccc(C(=O)N[C@H]4C[C@@H](O)[C@@H](O)NC(=O)[C@@H]5[C@@H](O)[C@@H](C)CN5C(=O)[C@H]([C@H](O)CC(N)=O)NC(=O)[C@H]([C@H](O)[C@@H](O)c5ccc(O)c(OS(=O)(=O)O)c5)NC(=O)[C@@H]5C[C@@H](O)CN5C(=O)[C@H]([C@@H](C)O)NC4=O)cc3)no2)cc1 |  | human children aged 6-11 years, plasma | intravenous, 3 mg/kg once daily, day 7, mean |  | Tmax | 1.1 h |
| CC1(C)S[C@@H]2[C@H](NC(=O)[C@H](C(=O)O)c3ccsc3)C(=O)N2[C@H]1C(=O)O |  | rat plasma | 2400 ng/mL, 24 h, room temperature, short-term stability | baseline: nominal concentration | relative error | -2.1% |
| FC(F)(c1ccccc1)[P-](F)(F)(F)(F)F |  | dichloromethane/water | 24 h, room temperature |  | logP | -0.23 |
| Oc1cc(Cl)c(-c2cc(Cl)ccc2Cl)cc1Cl |  | Sprague-Dawley rat, male, serum | subcutaneous implant, 1% in implant, 28 d, low dose group |  | serum concentration | 16 ± 14 ng/g |
| [123I]c1cncc(OC[C@@H]2CCN2)c1 | SPECT | human, cerebellum | intravenous bolus, 7.35 mCi | baseline: tissue over plasma | tissue/plasma ratio | 31.1 |
| CSCC[C@H](NC(=O)[C@H](CCCNC(=N)N)NC(=O)[C@@H](NC(=O)[C@@H](NC(=O)[C@H](CCCNC(=N)N)NC(=O)[C@@H]1CCCN1C(=O)[C@H](CCCNC(=N)N)NC(=O)[C@@H](NC(=O)[C@H](Cc1c[nH]cn1)NC(=O)[C@H](CCCNC(=N)N)NC(=O)[C@H](CC(C)C)NC(=O)[C@H](CCCCN)NC(=O)[C@H](CC(C)C)NC(=O)CNC(=O)[C@H](CCCNC(=N)N)NC(=O)[C@H](CCCCN)NC(=O)[C@@H](NC(=O)c1ccc2c(c1)C(=O)OC21c2ccc(O)cc2Oc2cc(O)ccc21)C(C)C)C(C)C)C(C)C)[C@@H](C)O)C(=O)N[C@@H](CC(=O)O)C(=O)N[C@H](C(=O)O)C(C)C | no effect | Sprague-Dawley rat, excised skin | 50 µmol/L, 37 °C, FAM-labelled CPP conjugate | baseline: free FAM | apparent skin permeability | no effect |
| CC[C@H](C)[C@H](NC(=O)[C@H](CC(C)C)NC(=O)[C@H](Cc1c[nH]c2ccccc12)NC(=O)[C@H](CCC(N)=O)NC(=O)[C@@H](NC(=O)[C@H](Cc1ccccc1)NC(=O)[C@H](C)NC(=O)[C@H](CCCCNC(=O)COCCOCCNC(=O)COCCOCCNC(=O)CC[C@H](NC(=O)CCCCCCCCCCCCCCCCCCC(=O)O)C(=O)O)NC(=O)[C@H](CCC(N)=O)NC(=O)[C@H](C)NC(=O)[C@@H](NC(=O)[C@H](CCCCN)NC(=O)[C@H](CC(=O)O)NC(=O)[C@H](CC(C)C)NC(=O)C(C)(C)NC(=O)[C@@H](NC(=O)[C@H](CO)NC(=O)[C@H](Cc1ccc(O)cc1)NC(=O)[C@H](CC(=O)O)NC(=O)[C@H](CO)NC(=O)[C@@H](NC(=O)[C@H](Cc1ccccc1)NC(=O)[C@@H](NC(=O)CNC(=O)[C@H](CCC(=O)O)NC(=O)C(C)(C)NC(=O)[C@@H](N)Cc1ccc(O)cc1)[C@@H](C)O)[C@@H](C)O)[C@@H](C)CC)[C@@H](C)CC)C(C)C)C(=O)N[C@@H](C)C(=O)NCC(=O)NCC(=O)N1CCC[C@H]1C(=O)N[C@@H](CO)C(=O)N[C@@H](CO)C(=O)NCC(=O)N[C@@H](C)C(=O)N1CCC[C@H]1C(=O)N1CCC[C@H]1C(=O)N1CCC[C@H]1C(=O)N[C@@H](CO)C(N)=O |  | human, mild hepatic impairment, plasma | subcutaneous, 5 mg |  | AUC(0-inf) | 94300 ng·h/mL |
| Cn1c(Cn2ccc(C(F)(F)F)c(Oc3cc(Cl)cc(C#N)c3)c2=O)n[nH]c1=O |  | healthy adults | oral, 100 mg once daily, alone or coadministered, with: islatravir 2.25 mg once daily |  | participants with drug-related adverse events | 40% |
| Cc1c(P(=S)(c2ccccc2)c2ccccc2)n2ccccc2[n+]1C/C=C/c1ccccc1 |  | mouse, brain | intraperitoneal, 10 mg/kg, 1 h |  | concentration | 21 ng/g |
| CCCCCCCCCCCC[N+](C)(C)Cc1ccccc1 | ultrafiltration | human serum |  |  | unbound fraction in blood | 0.048 |
| CC(C)Nc1nc(Cl)nc(NC(C)C)n1 | LC-MS/MS | herbicide solution | 2 h, 40 °C, with: 365 nm UV exposure |  | remaining amount | 57.4 ± 12.3% |
| O=C(O)c1cc(O)c(O)c(O)c1 |  | zebrafish embryo AB wild type | immersion semi-static, 96 h |  | LC50 | 24 µg/mL |
| CN[C@@](C)(C[18F])C(=O)O |  | SCID mouse DU-145 xenograft, muscle | 60 min, post injection |  | tissue uptake | 0.7 ± 0.1 %ID/g |
| COc1ccc(OC)c(C=CC(=O)C=Cc2cc(OC)ccc2OC)c1 | fish embryo acute toxicity test | zebrafish (Danio rerio) embryos wild-type | immersion, up to 96 h, 0.1% DMSO |  | LC50 | < 200 µM |
| CNC(=O)c1ccc(-c2cnn3ccc(C(=O)N(C)c4ccc(Cl)c(C(=O)OC)c4)cc23)cc1 |  | rat, Wistar or Sprague Dawley, male, plasma, hepatic portal vein | oral, 100 mg/kg |  | AUC | 1.61 µM·h |
| COc1ccc(C[C@@H]2NC(=O)[C@H]([C@@H](C)O)NC(=O)[C@@H]3[C@@H]4CCN3C(=O)[C@@H]3Cc5cn(c6ccc(F)cc56)CCCCCCN(Cc5ccc(cc5)CCNC(=O)[C@]5(C)CCCN5C2=O)C(=O)CCC(=O)N[C@@H](C)C(=O)N[C@H](CNC(=O)CCCCC[N+](C)(C)C)C(=O)N[C@@H](Cc2cccc(c2)CNC(=O)CO4)C(=O)N3)cc1 |  | fasted healthy humans, plasma | oral, 200 mg single dose, with 1800 mg Labrasol, median |  | Tmax | 2.02 h |
| O[C@H]1CCCN[C@@H]1CCCn1cnc2c(Cl)c(Cl)ccc21 |  | healthy human volunteers, plasma | oral, 100 mg, day 1, median |  | Tmax | 2.5 h |

Repeated from above:
| Compound | test | system | conditions | scale | quantity | value |
| --- | --- | --- | --- | --- | --- | --- |
| CCCCCCCCCCCC[N+](C)(C)Cc1ccccc1 | ultrafiltration | human serum |  |  | unbound fraction in blood | 0.048 |
| c1cc([C@H]2CC[C@]3(CC2)OO[C@]2(O3)C3CC4CC(C3)CC2C4)ccc1OCCN1CCOCC1 |  | human, plasma | oral, 800 mg, single dose, fed |  | AUC(0-inf) | 23900 ng·h/mL |
| CSCC[C@H](NC(=O)[C@H](CCCNC(=N)N)NC(=O)[C@@H](NC(=O)[C@@H](NC(=O)[C@H](CCCNC(=N)N)NC(=O)[C@@H]1CCCN1C(=O)[C@H](CCCNC(=N)N)NC(=O)[C@@H](NC(=O)[C@H](Cc1c[nH]cn1)NC(=O)[C@H](CCCNC(=N)N)NC(=O)[C@H](CC(C)C)NC(=O)[C@H](CCCCN)NC(=O)[C@H](CC(C)C)NC(=O)CNC(=O)[C@H](CCCNC(=N)N)NC(=O)[C@H](CCCCN)NC(=O)[C@@H](NC(=O)c1ccc2c(c1)C(=O)OC21c2ccc(O)cc2Oc2cc(O)ccc21)C(C)C)C(C)C)C(C)C)[C@@H](C)O)C(=O)N[C@@H](CC(=O)O)C(=O)N[C@H](C(=O)O)C(C)C | no effect | Sprague-Dawley rat, excised skin | 50 µmol/L, 37 °C, FAM-labelled CPP conjugate | baseline: free FAM | apparent skin permeability | no effect |
